Results gathered from unrelated publications.
Each line is one published result; not all experiments were run side by side. “And” joins repeats or separate records; there may be more than shown. ± marks the error that the study gave.
UCHL1: Ubiquitin carboxyl-terminal hydrolase isozyme L1 (UCHL1, Homo sapiens, UniProt P09936)
UniProt P09936, sequence (whole entry, looked up): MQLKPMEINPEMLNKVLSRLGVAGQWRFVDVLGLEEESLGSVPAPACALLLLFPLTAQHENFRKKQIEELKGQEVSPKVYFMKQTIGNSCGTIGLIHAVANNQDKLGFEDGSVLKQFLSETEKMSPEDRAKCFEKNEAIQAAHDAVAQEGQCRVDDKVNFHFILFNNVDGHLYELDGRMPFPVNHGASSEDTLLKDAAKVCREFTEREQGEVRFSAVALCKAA

CC(=NNC(=O)COc1ccc2c(C)c(Cc3ccccc3)c(=O)oc2c1C)c1ccc(Br)cc1  viability (HPrEC normal prostate epithelial cells; MTT; 25 µg/mL, 2% serum): 57.8%
CC(=O)Nc1ccc(C=C(C#N)C(=O)NCc2ccccc2)cc1  labelling (UCHL1; covalent, intact protein LC-MS; 12.5 µM): 16.9%
CC(C)CC(=O)Nc1ccc(C2=C(c3ccc(O)cc3)[C@H]3O[C@@H]2CC3S(=O)(=O)N(CC(F)(F)F)c2ccc(O)cc2)cc1 (mixture of isomers)  IC50 (MCF-10A; cell viability; 72 (unit not given)): 21.2 ± 0.89 µM
CC(=O)Nc1nc(-c2cccc3ccccc23)cs1  inhibition (Trypanosoma cruzi; reporter translation, Renilla luciferase mRNA translation; cell-free extract; 40 µM; baseline: DMSO): -6.2%
C/C=C/C(=O)Nc1ccc(C2=C(c3ccc(O)cc3)C3OC2CC3S(=O)(=O)Oc2ccccc2)cc1 (centres unmarked)  IC50 (MCF-10A; cell viability; 72 (unit not given)): 20.9 ± 1.82 µM
Cc1cc(C(=O)NC(C)(C)COc2cccc3c2C(N)=NS(=O)(=O)N3)cc(C)n1  micronucleated binucleated cells (human peripheral blood lymphocytes; in vitro micronucleus test; 2000 µg/mL, 4 h, with rat liver S9 activation, DMSO 0.4%): 0.3%
Cc1ccccc1NC(=O)C(C#N)=Cc1cccnc1  labelling (UCHL1; covalent, intact protein LC-MS; 12.5 µM): 8.01%
CC(=O)O[C@H]1C(=O)[C@@]2(C)[C@H]([C@H](OC(=O)c3ccccc3)[C@]3(O)C[C@H](OC(=O)[C@H](O)[C@@H](NC(=O)c4ccccc4)c4ccccc4)C(C)=C1C3(C)C)[C@]1(OC(C)=O)CO[C@@H]1C[C@@H]2O  viability (CHP-212 parental; SRB; 0.001524 µM): 90.4%
N=C(N)NCCC[C@@H](NC(=O)CCOCCOCCNC(=O)[C@H](CCCCNC(=O)CC[C@H](NC(=O)c1ccc(NCc2cnc3nc(N)[nH]c(=O)c3n2)cc1)C(=O)O)NC(=O)CO/N=C/[C@H](F)[C@@H](O)[C@H](O)[C@H](O)CO)C(=O)NCC(=O)N[C@H](CC(=O)O)C(N)=O [fluorine-18 labelled]  maximum lung uptake (female nude mice, MDA-MB-231 xenograft, lung; 45 min to 2.5 h): ≤ 1.35 %ID/g
COc1ncnc(C2CC2)c1-c1ncc2cnn(Cc3ccc(-c4nc(C(F)(F)F)cn4C(C)C)cc3)c2n1  viability (CHP-212 parental; SRB; 12.5 µM): 82% and 82.1%
C[C@]12CC[C@@H]3c4ccc(O)cc4C[C@@H](CCCCCCCCC[S+]([O-])CCCC(F)(F)C(F)(F)F)[C@H]3[C@@H]1CC[C@@H]2O (some centres unmarked)  viability (MCF7; CCK-8; 100 nM; baseline: untreated): 45.2% and 54.8% and 49.5%
CC(C)C[C@H](NC(=O)[C@H](Cc1ccccc1)NC(=O)c1cnccn1)B(O)O  viability (CHP-212 parental; SRB; 0.004572 µM): 99.7%
C#Cc1cccc(Nc2ncnc3cc(OCCOC)c(OCCOC)cc23)c1  viability (HPrEC normal prostate epithelial cells; MTT; 0.4 µg/mL, 2% serum): 81.1%
O=C(CBr)Nc1ccc(OS(=O)(=O)C2CC3OC2C(c2ccc(O)cc2)=C3c2ccc(O)cc2)cc1 (centres unmarked)  IC50 (MCF-10A; cell viability; 72 (unit not given)): 5.16 ± 0.88 µM
O=C(CNc1cccc2ccccc12)N/N=C/c1ccc([N+](=O)[O-])o1  inhibition (Trypanosoma cruzi; reporter translation, Renilla luciferase mRNA translation; cell-free extract; 40 µM; baseline: DMSO): 14.7%
COc1ccc(N(CC(F)(F)F)S(=O)(=O)C2CC3OC2C(c2ccc(O)cc2)=C3c2ccc(NC(=O)C=C(C)C)cc2)cc1 (centres unmarked)  IC50 (MCF-10A; cell viability; 72 (unit not given)): 5.16 ± 0.15 µM
COc1cccc(-c2n[nH]c(SCc3ccccn3)n2)c1OC  binucleated cells with micronuclei (CHO-WBL; 200 µg/mL, 3 h, without S9): 1.4%

A few entries again:
Cc1cc(C(=O)NC(C)(C)COc2cccc3c2C(N)=NS(=O)(=O)N3)cc(C)n1  micronucleated binucleated cells (human peripheral blood lymphocytes; in vitro micronucleus test; 2000 µg/mL, 4 h, with rat liver S9 activation, DMSO 0.4%): 0.3%
Cc1ccccc1NC(=O)C(C#N)=Cc1cccnc1  labelling (UCHL1; covalent, intact protein LC-MS; 12.5 µM): 8.01%
CC(=O)O[C@H]1C(=O)[C@@]2(C)[C@H]([C@H](OC(=O)c3ccccc3)[C@]3(O)C[C@H](OC(=O)[C@H](O)[C@@H](NC(=O)c4ccccc4)c4ccccc4)C(C)=C1C3(C)C)[C@]1(OC(C)=O)CO[C@@H]1C[C@@H]2O  viability (CHP-212 parental; SRB; 0.001524 µM): 90.4%
